Measurements gathered from unrelated publications.
Numbered parts are unrelated; each lists some results of a single study. Several values in a cell are separate wells, animals, samples, runs or records.

Block 1 — cell line: U-87 MG; concentration: concentration not given; reference: DMSO; endpoint: log2 fold change
SMILES: CCN1/C(=C/C=C2\CCCC(/C=C/C3=[N+](CC)c4ccccc4C3(C)C)=C2NCCCCCCCCN2CCC(Nc3nc4ccccc4n3Cc3ccc(F)cc3)CC2)C(C)(C)c2ccccc21
refers to: RTN1 mRNA: 1.06
refers to: ARL14EP mRNA: 1.01
refers to: PAIP2 mRNA: 0.881
refers to: CGB3 mRNA: -2.78
refers to: LRIG3 mRNA: -1.75
refers to: CA9 mRNA: -1.74

Block 2 — effect on: thermal unfolding; technique: differential scanning fluorimetry; concentration: 5.5 µM; reading: higher = more unfolded; endpoint: SYPRO Orange fluorescence
SMILES: C[C@@H]1CN(c2ccc(-c3cc(C(=O)NCCOCCOCCOCCOCCOCCOCCNC(=O)/C=C/c4[nH]cc(C(=O)N[C@@H](CC(N)=O)c5ccc(F)c(Cl)c5)c4-c4ccc(Cl)cc4F)ccc3F)cc2NC(=O)c2ccc(F)cc2C(F)(F)F)C[C@H](C)N1C
WDR5: WD repeat-containing protein 5 (WDR5, Homo sapiens, UniProt P61964)
DCAF1: DDB1- and CUL4-associated factor 1 (DCAF1, Homo sapiens, UniProt Q9Y4B6)
UniProt Q9Y4B6, sequence (whole entry, looked up): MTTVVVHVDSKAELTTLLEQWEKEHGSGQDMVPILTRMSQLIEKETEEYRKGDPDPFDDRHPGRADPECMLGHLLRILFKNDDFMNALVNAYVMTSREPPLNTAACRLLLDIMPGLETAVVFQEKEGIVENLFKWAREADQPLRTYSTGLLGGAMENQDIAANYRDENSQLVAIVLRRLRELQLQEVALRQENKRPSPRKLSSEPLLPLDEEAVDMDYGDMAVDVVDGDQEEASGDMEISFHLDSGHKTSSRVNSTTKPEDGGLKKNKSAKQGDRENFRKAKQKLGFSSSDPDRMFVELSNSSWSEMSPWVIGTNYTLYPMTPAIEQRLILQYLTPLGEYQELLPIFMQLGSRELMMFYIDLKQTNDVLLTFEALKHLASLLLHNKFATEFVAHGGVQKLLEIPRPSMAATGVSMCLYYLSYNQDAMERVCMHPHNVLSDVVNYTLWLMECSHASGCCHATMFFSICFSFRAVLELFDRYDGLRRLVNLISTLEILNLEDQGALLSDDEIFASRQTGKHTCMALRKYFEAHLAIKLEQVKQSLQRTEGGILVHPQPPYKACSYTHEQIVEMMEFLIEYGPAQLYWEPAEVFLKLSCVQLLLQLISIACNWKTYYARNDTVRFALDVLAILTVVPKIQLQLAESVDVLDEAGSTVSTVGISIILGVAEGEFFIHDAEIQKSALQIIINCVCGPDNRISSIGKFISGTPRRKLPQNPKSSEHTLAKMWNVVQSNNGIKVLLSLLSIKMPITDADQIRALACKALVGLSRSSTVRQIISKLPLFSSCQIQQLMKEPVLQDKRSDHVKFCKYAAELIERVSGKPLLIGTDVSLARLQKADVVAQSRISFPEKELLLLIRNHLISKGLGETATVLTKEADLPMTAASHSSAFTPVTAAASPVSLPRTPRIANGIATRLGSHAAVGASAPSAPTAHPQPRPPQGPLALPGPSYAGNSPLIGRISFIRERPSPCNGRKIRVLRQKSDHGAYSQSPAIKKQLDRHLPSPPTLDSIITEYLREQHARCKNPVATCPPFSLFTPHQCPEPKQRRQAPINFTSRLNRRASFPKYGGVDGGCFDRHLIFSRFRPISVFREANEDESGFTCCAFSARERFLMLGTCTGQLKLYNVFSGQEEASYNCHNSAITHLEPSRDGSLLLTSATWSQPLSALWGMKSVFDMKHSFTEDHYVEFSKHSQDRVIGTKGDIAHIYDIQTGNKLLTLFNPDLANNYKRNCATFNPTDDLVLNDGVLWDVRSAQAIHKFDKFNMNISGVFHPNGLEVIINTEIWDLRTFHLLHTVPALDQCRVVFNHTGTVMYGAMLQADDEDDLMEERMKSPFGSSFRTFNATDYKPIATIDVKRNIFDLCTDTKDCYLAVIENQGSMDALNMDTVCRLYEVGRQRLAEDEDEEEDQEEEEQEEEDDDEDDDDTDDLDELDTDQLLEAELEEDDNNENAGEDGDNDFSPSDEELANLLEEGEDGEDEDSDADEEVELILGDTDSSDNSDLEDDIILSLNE
WDR5; 47.8 °C: 15400 a.u.
WDR5; 32.2 °C: 13700 a.u.
DCAF1; 89.81 °C: 32500 a.u.
WDR5; 85.61 °C: 61300 a.u.
DCAF1; 30 °C: 8350 a.u.
DCAF1; 55.61 °C: 28900 a.u.
DCAF1; 31.8 °C: 8940 a.u.
DCAF1; 46.8 °C: 15600 a.u.

Further values, each from its own experiment
Cc1ccc(O)c(C)c1-c1cnc2[nH]c(-c3cnc(N4CCC5(CC4)CC(N4CCN(c6ccc(NC7CCC(=O)NC7=O)cc6F)CC4)CO5)nc3)cc2c1C#N (stereo not shown)  phospho-CDK1 (Thr14) level (HCC1569; CDK1 Thr14 phosphorylation, in-cell western; 4.12 nM; lower = stronger inhibition): 24.9 a.u. and 30.2 a.u.
FC(F)(F)c1ccc(C2=NOC3(NC(c4ccccc4)=NO3)N2c2ccccc2)cc1 (stereo not shown)  viability (HEK293-A; cell growth or viability, ATP luminescence; 10 µM, 72 h): > 75%
